Experimental data of several laboratories.
Numbered parts are unrelated; each lists some results of a single study. Changes are numbered by the printed parent chain.

Study 1 — method: RNA Bind-n-Seq; molecule type: RNA; medium: in vitro; tested at: 365 nM; reference: no-protein control; reading: higher = stronger binding
Target: RNA binding protein fox-1 homolog 2, RRM domain, GST-SBP tag (RBFOX2, Homo sapiens, UniProt O43251-10, residues 100-194)
Setting: natural RNA segment, single round, ends assumed
Shared flanks, not repeated: GGGAGUUCUACAGUCCGACGAUC … UGGAAUUCUCGGGUGCCAA
Residues (chain): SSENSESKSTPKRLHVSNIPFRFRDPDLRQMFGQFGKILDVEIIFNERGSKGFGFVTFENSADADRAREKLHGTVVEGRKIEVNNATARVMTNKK
Oligonucleotide	RBNS enrichment (R)
CCUCCCCCAAGCCAACCACUUUCACCUGGGAUGACUUUCGAUUAUGCUUUGUUUUGGGGCUGUAUUUUUGAAAUACUCUACAAGAAAGCUGUGGCUCAACACAUGAGAAG	0.358
UUUCUGUGACAGGUAACAAAUUUGGGGAAGACAGCACAAUCUUCUUGAAUGUAGCUCUUGGGAAUGCAUUAUUACAUCCAUUUCUGUAACAUAAUAAUAUGUUGCAUGCA	9.6
CAUGAUGACAACUACAGAAAAACCAGAGGCAGCUUCUUUGCCAAGACCUUUCAAAGCCAUUUUAGGCUGUUAGGGGCAGUGGAGGUAGAAUGACUCCUUGGGUAUUAGAG	0.449
CUUUCUAAAAACCAUUUAAAGCUAACUGGGUCUUAGCAUCCUCCUGUGUAUGGAAGAGACAGGUGACCGCUCCAGGUUGGGUGCUCACAGAACCCUUUUCCUGACUCUCA	0.569
GUUGUUUCCCAAUCAAAGGUUAUUUCUAGAUGGCUAUAUGCUUUGUUGCAAUUUCUGCUUCCACCUAUUUUCCAAGCAUUUUACUUAAGAAGGAUACUGUGUAGUUGAAC	1.29
UGGAAUUUCAGGAACUAUUGGAGCACGGCACAAUUGAUGCACAGGUAUUUCCUCCUGGCCCUUUUGGGUAUCAGCUUGCAGCUGGGAUACAGGCAUCUUAGAUAUUGCAG	4.01
CAGGGGAAGUGGGAGCAGAUGGCCUGCCUGUGGUUGAGAGGGCUACCUGCCCGACCCCUCCCCCACCAAGGUAUCUUGGGCUCCAGCCUCAGAGCCUGGACUAGUUCUGA	1.02
GAGGACCAAUUUCUCAAGUCUCAGGGUUAUCAUAAAACCUUACUAACUUUAUCUUUCAUUUUUUAAAUCUCCAUUAUCCACCAAAUCUGAGCACCAAUCCCAGGUUUGUA	1.14
GCUCCCAGUUUUCCAGUUUGAGGUUCGUAGAACAAUGUCAAGUGGCAAAAUGAAGUUGGUGGACUCCGCCUUAAUGAGAAAGGCUUAGAGCAGUUAUGAGGUGCUGUUAU	0.921
CUAAUGUGAUGGAUGUGUCUGGUAAUGCGAAACAACUUAUUUCCGUCUACUGCUCAGCACUUUGGUAAGAGCCUGUGGCAGUCUGUAAGAGUGGGGUGAGGAAGAAGCCA	0.84
GGUUGCAACCUGGCAACAUUGAAUCCACCACCCUUGGGCUCCCUCUGGAAGCCCCAGCACCGGGGGGCUUUUGGGCACAGGGUCAGUGGUAGCCAUCUUAGACACUGACA	0.714
CUGGCACUGUUUACAAGUCUGUUAGCUGCAUAAGCUCAAUAAAAAGUUGGUCUGGGCAUUACAUCCCCUCUGGCAGGCCAAUAGCUGCAUCAAGCUGUUGGGAGAAAUGG	0.539

Study 2 — method: RNA Bind-n-Seq; molecule type: RNA; medium: in vitro; tested at: 200 nM; setting: whole 134-nt RNA, ends assumed; with: 150 mM KCl; reference: input library; reading: higher = stronger binding
Target: Ras GTPase-activating protein-binding protein 1, full length (G3BP1, Homo sapiens, UniProt Q13283)
Sequence of UniProt Q13283 (whole entry, looked up): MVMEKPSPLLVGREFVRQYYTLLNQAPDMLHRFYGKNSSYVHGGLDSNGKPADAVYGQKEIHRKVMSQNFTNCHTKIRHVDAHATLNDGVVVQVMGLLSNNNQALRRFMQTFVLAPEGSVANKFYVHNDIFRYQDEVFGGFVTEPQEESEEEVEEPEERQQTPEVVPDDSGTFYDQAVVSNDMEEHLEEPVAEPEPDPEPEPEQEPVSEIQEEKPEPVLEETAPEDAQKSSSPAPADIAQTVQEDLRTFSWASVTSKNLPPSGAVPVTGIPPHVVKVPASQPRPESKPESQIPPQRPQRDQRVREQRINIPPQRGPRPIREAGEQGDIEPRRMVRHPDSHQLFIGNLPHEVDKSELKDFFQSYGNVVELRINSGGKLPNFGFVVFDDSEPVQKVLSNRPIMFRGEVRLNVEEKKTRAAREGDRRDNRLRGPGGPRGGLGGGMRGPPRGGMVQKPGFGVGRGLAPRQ
Shared flanks, not repeated: GGGAGUUCUACAGUCCGACGAUC … UGGAAUUCUCGGGUGUCAAGG
Oligonucleotide	log2 enrichment
CUCAAGUCCUGUGCUACACAUCGUAUGUACCGAAUCGGAAAAAAAGGUGGAGGAAAGUAUUAUGUUACGCCGUUCGGAUCUGCACUUCCA	-0.397
ACCAUGCAGGUGGGCAUCUUUGGGAAAAAGGGCAAGGGGGGGAUAGGGAGGGGGGUAACACUUUGGGAACAGGUGGUCCCAGGUCGUUUC	1.22
GUCCUGUGCUACACAUCGUAUGUACCGAAUCGGUUUUUUUGGUUUUUUUGGUUUUUGGAAAGUAUUAUGUUACGCCGUUCGGAUCUGCAC	-1.18
CAAGUCCUGUGCUACACAUCGUAUGUACCGAAUCGGGGUUUGGGGUUUGGUUUGGAAAGUAUUAUGUUACGCCGUUCGGAUCUGCACUUC	0.00931
UCCUGUGCUACACAUCGUAUGUACCGAAUCGGUUUUUUGGGUUUUUUGGGUUUUUUGGGAAAGUAUUAUGUUACGCCGUUCGGAUCUGCA	-0.62
UGCUGGUGAGCUGCUGCCUGGCAGGCCACGUCUGCGUGUGGGACGCGCAGACCGGGGAUUGCCUAACGCGCAUUCCGCGCCCAGGGUAGG	-1.38
CACAGACAACACGCACCCACAUAGACACAGAGGGAAGGGGUUGGGAUGGGGACAGGGUGCACAGCAGGGCGGGGUAGGACCCCAGCCCCU	1.94
GUGCUGGCUGGCCACGGUCACCUGUAUUCCCGCAUCCCAGGCCUGCUCAGCCCCCAUCCCCUGCUGCAGCUGAGCUACACGGCCACCGAC	1.03
UCAAGUCCUGUGCUACACAUCGUAUGUACCGAAUCGGAAAGGGAAAGGAAAGGGAAAGUAUUAUGUUACGCCGUUCGGAUCUGCACUUCC	-0.804
UGGCCCUGGUGGCAUGCGGGGAGGAAGAGGUGGCCUCAUGGAUCGUGGUGGUCCCGGUGGUAUGUUCAGAGGUGGCCGUGGUGGAGACAG	0.182
UUUUGCAUUUAGGGUUUUAACCAAGAAGAUCUGGAAGAAGAAAAAGGUGAAACACAGGUAAAAGAAGCAGAAGAUUCAGAUUCUGAUGAU	-2.23
CACAGACUACACGCACCCACACAGACACAGAGGGAAGGGGUUGGGAUGGGGACAGGGUGCACAGCAGGGCGGGGUAGGACCCCAGCCCCU	1.77
UGUCCCUGGUGGCAUGCGGGGAGGAAGAGGUGGCCUCAUGGAUCGUGGUGGUCCCGGUGGAAUGUUCAGAGGUGGCCGUGGUGGAGACAG	0.0978
CUCAAGUCCUGUGCUACACAUCGUAUGUACCGAAUCGGGGUUGGGUUGGUUGGAAAGUAUUAUGUUACGCCGUUCGGAUCUGCACUUCCA	0.226

Study 3 — method: RNA Bind-n-Seq; molecule type: RNA; medium: in vitro; tested at: 100 nM; reference: input RNA pool; reading: higher = stronger binding
Target: RING finger protein unkempt homolog, zinc fingers 1-6, SBP tag (UNK, Homo sapiens, UniProt Q9C0B0, residues 30-357)
Sequence of UniProt Q9C0B0 (30-357, looked up): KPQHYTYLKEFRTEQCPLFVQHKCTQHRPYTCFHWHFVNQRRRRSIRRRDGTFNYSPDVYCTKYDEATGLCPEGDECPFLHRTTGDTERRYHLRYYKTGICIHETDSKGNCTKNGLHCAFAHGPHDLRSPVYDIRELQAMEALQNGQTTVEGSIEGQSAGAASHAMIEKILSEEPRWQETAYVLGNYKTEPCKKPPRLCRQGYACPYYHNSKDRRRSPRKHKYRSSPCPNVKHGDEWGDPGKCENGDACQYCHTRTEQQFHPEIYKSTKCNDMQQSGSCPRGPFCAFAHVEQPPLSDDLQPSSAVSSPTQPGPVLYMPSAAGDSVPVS
Setting: RNA with constant flanks, vertebrate orthologous sites, ends assumed
Shared flanks, not repeated: GGGAGUUCUACAGUCCGACGAUC … CAACAGAGGAUUGAGCAUCA
Oligonucleotide	bound/input enrichment [ratio]
AGUAAGAGUUGAAAGAAUUGUACGAGGUAGUGGUGAAAAAGUAGGAGCAGUUUGGAAGAGUAGUUACAAAUAUCAAGAGCCAGUUGGCUCAGAAGUGGAGGUGCAGAUCAUUGAAUCUCA	0.725
UUGCCUACAAUAAUGAAAACCUAAAGGAAUUUUUUAUUUUUAAUUUUCCCCUUAGGCAUAUUUAGACAUCUUUUUUCCAGGCAGAUCAUUCAGAGUGUGCGAGUGUGUGUGCACAUGUUA	0.755
CGAGUCUUCCACUUAGGGUCGGCCUCAAAUUUAUAGGAGUUAUGACAAUUGUAUAUCUACUUAGGUUGAGUUUGAUAUUUUUUUAUUCGCCUGUAAAUAAAGAUGGCAUCUUCUAUAUUA	0.336
UUGGUUGAAGGUAGAGGGGAGGGAGGGGCAGGACAGUGUGGAAUCUGUAGGGUGUUAUGGGUAGGUAGAGGGAAGAGUUCUAAGUGGGCCUUUAUGUUAAAAACCUAGAGGUGUCUAUUC	0.536
UCCCGCACCUGCGGGGGCGUGACCGAGGCUGAAGCAUCCACCUGCGCUGUGAGGGGUCCACGGUAUUUCUUUUUUUGCUGCCUCAGGCCCCAGAGCCUUCAAGCAACAGCGGCAGUAGAU	0.151
UGUACCUCCUGAACUUCUAGCUUUCAAGUUGGGGCUGGUUUUUUUUUCUUUUCUUUUCUUUAGAAUUUUUCCCUGUUUCCCACCUUCUCUUCCCCUGUUCCCAAGAUCUGACUCAUGGAU	1.57
UUUAUUUUUGAGGAGGCAGAAGUUUCUUCUCUCCUUCAAGUAAAACUGAAUUAAUUUGCUUUUAUUUCUGUCUUGGAAAACAAAGAUGGCCUAUUCUCUUAACUGUGUUACAAUACCAUC	0.224
GUUUUUUUGUUUUGCACAUGACAGUGUGUGUAUGGAUCUGAGGAAGGAGGUGGGGUGCUGGUGCAGUUGGCCUCCAGUGCCCCCCACCCUCACCACCCCACCUGGUAUCUUUGCCAUGUU	0.272

Study 4 — method: protein binding microarray; molecule type: double-stranded DNA, one strand shown; medium: in vitro; tested at: not given; reference: not given; reading: higher = stronger binding
Target: Histone acetyltransferase KAT6A, both winged helices, GST fusion (KAT6A, Homo sapiens, UniProt Q92794, residues 1-181)
Setting: 8-mer, flanks averaged, mean of 2 arrays, mostly near background
Target sequence (chain): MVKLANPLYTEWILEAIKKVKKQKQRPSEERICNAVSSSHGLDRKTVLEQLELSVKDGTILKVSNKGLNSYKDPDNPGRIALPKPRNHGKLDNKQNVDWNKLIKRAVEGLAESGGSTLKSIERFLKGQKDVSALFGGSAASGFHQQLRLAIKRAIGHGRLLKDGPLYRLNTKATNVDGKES
Oligonucleotide	E-score
CTGCCGTA	0.182
CGAAGCCG	0.217
CACACAGG	-0.218
CATAATCA	-0.0187
TTCTACAA	-0.00861
CACTAGGG	-0.141
ACAGGCAG	-0.192
CACTAAGC	-0.187
ATACTCAT	-0.217
CCGGGTTA	0.249
GCTACGAA	0.0371
CGGATATA	0.198
GTACACCA	-0.164
CTAAGTCA	-0.0755
GCCCGTAC	0.237
CAACTGCG	0.171
TCCGCCCA	-0.0662
AGCACAAC	-0.106

Study 5 — target: CCNE1, cyclin fold, Cln2 fusion (human); method: yeast growth competition, sequencing; medium: yeast; setting: strong parent motif; reference: not given; reading: higher = stronger binding
Starting sequence: SCAPER docking peptide (human); SNARRSLNFGGST
Substitution	normalised enrichment score
SNARHSLNFGGST [R5H]	0.0213
SNARRSLNFHGST [G10H]	0.651
SNARRRLNFGGST [S6R]	5.34
SNARRSSNFGGST [L7S]	0.617
SNARRSLNFGPST [G11P]	0.527
FNARRSLNFGGST [S1F]	1.84
SNNRRSLNFGGST [A3N]	0.988
LNARRSLNFGGST [S1L]	1.43
SNARRSLNFGGSY [T13Y]	0.655
SNPRRSLNFGGST [A3P]	0.193
SNARQSLNFGGST [R5Q]	0.448
SNAERSLNFGGST [R4E]	-0.413
RNARRSLNFGGST [S1R]	0.685
SNARRSLNFGGSL [T13L]	1.89
SNARRMLNFGGST [S6M]	3.08
SNARRSLNFGGSC [T13C]	1.37
SNARRSLPFGGST [N8P]	0.0425
SNARRSLNFGGSG [T13G]	1.22
SNARRSLNFIGST [G10I]	1.04
SNARRSFNFGGST [L7F]	0.556
SNARSSLNFGGST [R5S]	0.195
SNARRSLNFGGSF [T13F]	1.17
SNAIRSLNFGGST [R4I]	1.03
SNGRRSLNFGGST [A3G]	0.228

Excerpt of the above (study 1):
Oligonucleotide	RBNS enrichment (R)
CAUGAUGACAACUACAGAAAAACCAGAGGCAGCUUCUUUGCCAAGACCUUUCAAAGCCAUUUUAGGCUGUUAGGGGCAGUGGAGGUAGAAUGACUCCUUGGGUAUUAGAG	0.449
CUUUCUAAAAACCAUUUAAAGCUAACUGGGUCUUAGCAUCCUCCUGUGUAUGGAAGAGACAGGUGACCGCUCCAGGUUGGGUGCUCACAGAACCCUUUUCCUGACUCUCA	0.569
GUUGUUUCCCAAUCAAAGGUUAUUUCUAGAUGGCUAUAUGCUUUGUUGCAAUUUCUGCUUCCACCUAUUUUCCAAGCAUUUUACUUAAGAAGGAUACUGUGUAGUUGAAC	1.29
UGGAAUUUCAGGAACUAUUGGAGCACGGCACAAUUGAUGCACAGGUAUUUCCUCCUGGCCCUUUUGGGUAUCAGCUUGCAGCUGGGAUACAGGCAUCUUAGAUAUUGCAG	4.01
CAGGGGAAGUGGGAGCAGAUGGCCUGCCUGUGGUUGAGAGGGCUACCUGCCCGACCCCUCCCCCACCAAGGUAUCUUGGGCUCCAGCCUCAGAGCCUGGACUAGUUCUGA	1.02
